Measurements from different studies.
A part holds a random share of what one study measured.

Set 1
Target: Histone acetyltransferase KAT6A, winged helix 1, GST fusion (KAT6A, Homo sapiens, UniProt Q92794, residues 1-85)
Technique: protein binding microarray
Molecule type: double-stranded DNA, one strand shown
Matrix: in vitro
Tested at: not given
Setting: 8-mer, flanks averaged, mean of 2 arrays, mostly near background
Reference: not given
Reading: higher = stronger binding
Quantity: E-score
Construct (chain): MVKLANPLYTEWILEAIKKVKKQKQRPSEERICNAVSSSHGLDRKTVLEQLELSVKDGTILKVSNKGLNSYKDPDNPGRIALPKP
Sequence = AAGGAATG; value = -0.102
Sequence = CTGTATGA; value = -0.0105
Sequence = GACGTAAA; value = 0.134
Sequence = ATACCAGA; value = -0.18
Sequence = AAACATGT; value = 0.0276
Sequence = CGGGAGCC; value = 0.276
Sequence = CCTCACAC; value = -0.153
Sequence = CAACTCAC; value = -0.291
Sequence = ACTTGCTG; value = -0.144
Sequence = GCCACCGC; value = 0.308
Sequence = ACGACCGT; value = 0.17
Sequence = ATTAGGCG; value = 0.131
Sequence = CGGTTCTA; value = 0.224
Sequence = CACGGGAG; value = 0.163
Sequence = GTTCAAAC; value = 0.00766
Sequence = ATGCCTTG; value = -0.203

Set 2
Target: RNA binding protein fox-1 homolog 2, RRM domain, GST-SBP tag (RBFOX2, Homo sapiens, UniProt O43251-10, residues 100-194)
Technique: RNA Bind-n-Seq
Molecule type: RNA
Matrix: in vitro
Tested at: 365 nM
Setting: natural RNA segment, single round, ends assumed
Reference: no-protein control
Reading: higher = stronger binding
Quantity: RBNS enrichment (R)
Target sequence (chain): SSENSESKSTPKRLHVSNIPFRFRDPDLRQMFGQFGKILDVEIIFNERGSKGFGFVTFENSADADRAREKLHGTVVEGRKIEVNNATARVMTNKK
Sequence = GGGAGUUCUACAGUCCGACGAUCUAGAGCUUAGAUUUCCCUAUUGUGACAGAGCCAUGGUGUGUUUGUAAUAAUAAAACCAAAGAAACAUACGUCCUGUGUGCAUGGUACAGUGUGCUGACCUGAGGCCGUCAUGGAAUUCUCGGGUGCCAA; value = 0.843
Sequence = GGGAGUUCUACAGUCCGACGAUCAAAACAUACUUAUCCUAAAGAGAUGGUGAGAUAUAACAUGCCUUAAAUUAUAUUAUAGAAUUUAAAUAACUAGCUUUCACAAUCAGUUUGUGUGUAAAAUGUCAUUUAAAUGGAAUUCUCGGGUGCCAA; value = 0.621
Sequence = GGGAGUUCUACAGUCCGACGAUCUGACAAAUGUUAAGUGUAAUAAUAGAAAAGUAGAGCAAAGAGCCAUUCAGCUUCAGUCUUUACAUACCAUGAAUAAAACAUUAAAACAUCAUAUGGAGAAGUUUACAUGGUGGAAUUCUCGGGUGCCAA; value = 0.243
Sequence = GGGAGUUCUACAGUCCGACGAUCACAUUUUAACAACUGGCACACACAUGAGCCUACACACUUGAGCCUACACACAUGAGCCAGUUUUUCCUUAUUGUAGUGUCCUGUGAGACAGACCAGCUCCAAGCACUGCUUGGAAUUCUCGGGUGCCAA; value = 0.433
Sequence = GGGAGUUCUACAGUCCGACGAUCGGUUGUUGAAAACUAAUUGUAUUAAAUGUCUUUUGAUAAGCCUUCUGCUCACACUUUUGUGACUGUCUGAAGUAUAUAGUUUGUGUAUAUUGAUAGAGCUCUUUUAUAACUGGAAUUCUCGGGUGCCAA; value = 0.586
Sequence = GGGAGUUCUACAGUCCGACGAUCUACCAGUCGUGAGUCUGCAGGCUCCAGUGUUCUGUAGUAGUGUUUAUGGGCCUUGGGAGUACUUCUCCCCUGCCCUGCCCCACUGUCCCCUUCCUGACAACUUGAGCCAGUGGAAUUCUCGGGUGCCAA; value = 0.331
Sequence = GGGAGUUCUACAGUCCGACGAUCCAAGAACCAACAUCACUGCUCUUUUAGAUAAACCUCUGCCCUCCACUCCUUGCUUGAGUGGGUUAAAGGAACUAACAGUUGUCCCUUUAGGAGGACAAAAUGGGGUCAAGUGGAAUUCUCGGGUGCCAA; value = 0.335
Sequence = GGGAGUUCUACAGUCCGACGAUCAAUGCUAAAAUCUAUUCGCAAGAGUUUUGAGCUAACUUCGUCUCUUAAAUUGCUUUAAUUGUCAUCAAUAAAAACAAAUAUGAAAAACCCUAGUUUAAAAAGCGGUUCAAUGGAAUUCUCGGGUGCCAA; value = 0.348
Sequence = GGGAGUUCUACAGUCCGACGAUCAGGUCCUGCCCAUCGGGCACAUGUCUCAAGCCCAUGGGGAGCAUAGCAGUCCGGGAGGCUGUGGAAAUGUUUAUUUAUAUUGUCCUUUUUUACCGAAGACAUGCAUACUCUGGAAUUCUCGGGUGCCAA; value = 1.09

Set 3
Target: Ras GTPase-activating protein-binding protein 1, full length (G3BP1, Homo sapiens, UniProt Q13283)
Chain of UniProt Q13283 (whole entry, looked up): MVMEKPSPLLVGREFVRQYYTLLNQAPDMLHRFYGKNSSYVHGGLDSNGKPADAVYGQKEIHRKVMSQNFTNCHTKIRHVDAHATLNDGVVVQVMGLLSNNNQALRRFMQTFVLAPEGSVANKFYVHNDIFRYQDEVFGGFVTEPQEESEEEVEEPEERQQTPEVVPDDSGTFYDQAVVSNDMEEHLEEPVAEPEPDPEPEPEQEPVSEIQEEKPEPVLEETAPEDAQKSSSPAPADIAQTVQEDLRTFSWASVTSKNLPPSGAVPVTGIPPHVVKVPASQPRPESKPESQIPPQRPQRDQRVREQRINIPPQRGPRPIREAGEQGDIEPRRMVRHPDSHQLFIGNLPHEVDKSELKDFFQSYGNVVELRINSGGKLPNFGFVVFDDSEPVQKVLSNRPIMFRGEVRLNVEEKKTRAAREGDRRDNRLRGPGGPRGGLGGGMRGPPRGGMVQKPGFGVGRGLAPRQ
Technique: RNA Bind-n-Seq
Molecule type: RNA
Matrix: in vitro
Tested at: 200 nM
Setting: whole 134-nt RNA, ends assumed
Together with: 150 mM KCl
Reference: input library
Reading: higher = stronger binding
Quantity: log2 enrichment
Sequence = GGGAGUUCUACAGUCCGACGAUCGUCCUGUGCUACACAUCGUAUGUACCGAAUCGGGUUUUUUUGGGUUUUUUUGGGAGGGAAAGUAUUAUGUUACGCCGUUCGGAUCUGCACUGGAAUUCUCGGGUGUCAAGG; value = -0.186
Sequence = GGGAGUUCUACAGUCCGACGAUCUGGCCCUGGUGGCAUGCGGGGAGGAAGAGGUGGCCUCAUGGAUCGUGGUGGUCUCGGUGGAAUGUUCAGAGGUGGCCGUGGUGGAGACAGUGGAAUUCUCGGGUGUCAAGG; value = 0.184
Sequence = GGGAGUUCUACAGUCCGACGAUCACCAUGCAGGUGGGCAUCUUUGUGAAGUGGGGCAAGGGGGGGAUAGGGAGGGGGGUAACACUUUGGGAACAGGUGGUCCCAGGUCGUUUCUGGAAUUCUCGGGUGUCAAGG; value = 1.36
Sequence = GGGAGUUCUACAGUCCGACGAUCUUUGAAGAUCAGCUUCAGCAAUGGUUGUCUGAAGACUCAGGAGCAUUUACGGAUUUAACUUCCCUUCCCCUCUAUCUUCCUCAGACUCUAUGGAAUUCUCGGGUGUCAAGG; value = -0.214
Sequence = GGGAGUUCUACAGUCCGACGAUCUCCUGUGCUACACAUCGUAUGUACCGAAUCGGAAAAAAAGGAAAAAAAGGAAAAAAAGGAAAGUAUUAUGUUACGCCGUUCGGAUCUGCAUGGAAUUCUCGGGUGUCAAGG; value = -0.567
Sequence = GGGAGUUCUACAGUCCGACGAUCCAAGUCCUGUGCUACACAUCGUAUGUACCGAAUCGGGAAAGGGAAAGGGGAAAGGGAAAGUAUUAUGUUACGCCGUUCGGAUCUGCACUUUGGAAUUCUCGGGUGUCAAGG; value = 0.391
Sequence = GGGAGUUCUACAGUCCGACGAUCGCAGGAAGUAAAAACAAAUGGAAAUGCUUCGGAUAGUGGCAGGUGUGGGGGUUGCUAAGGAAAGGGUGGGAUGGGAGUGGGUAAAGAGUUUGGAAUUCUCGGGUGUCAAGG; value = 0.936
Sequence = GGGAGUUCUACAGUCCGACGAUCUGCUGUGUCACCGGGAACGCAAAGGCUGGGAAGAAGGCCCUUCUCAAAAUGGACUGGUGUUGCAGGGUGAGAAGCUGCCCCCUGACUUCAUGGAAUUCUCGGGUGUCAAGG; value = -0.487
Sequence = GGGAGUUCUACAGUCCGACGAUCAGUCCUGUGCUACACAUCGUAUGUACCGAAUCGGUUUUUGGUUUUUGGGUUUUUGGGAAAGUAUUAUGUUACGCCGUUCGGAUCUGCACUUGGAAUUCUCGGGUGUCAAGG; value = -1.23
Sequence = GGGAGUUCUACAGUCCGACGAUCGCAGGAAGGAAAAACAAAUGGAAAUGCUUCGGAUAGUGGCAGGGGUGGGGGUUGCUAAGGAAAGGGUGGGAUGGGAGUGGGUAAAGAGUUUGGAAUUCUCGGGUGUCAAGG; value = 1.62

Set 4
Target: RING finger protein unkempt homolog, zinc fingers 1-6, GST-SBP tag (UNK, Homo sapiens, UniProt Q9C0B0, residues 30-357)
Technique: RNA Bind-n-Seq
Molecule type: RNA
Matrix: in vitro
Tested at: not given
Setting: RNA with constant flanks, human-mouse chimeric sites, ends assumed
Reference: input RNA pool
Reading: higher = stronger binding
Quantity: bound/input enrichment
Target sequence (chain): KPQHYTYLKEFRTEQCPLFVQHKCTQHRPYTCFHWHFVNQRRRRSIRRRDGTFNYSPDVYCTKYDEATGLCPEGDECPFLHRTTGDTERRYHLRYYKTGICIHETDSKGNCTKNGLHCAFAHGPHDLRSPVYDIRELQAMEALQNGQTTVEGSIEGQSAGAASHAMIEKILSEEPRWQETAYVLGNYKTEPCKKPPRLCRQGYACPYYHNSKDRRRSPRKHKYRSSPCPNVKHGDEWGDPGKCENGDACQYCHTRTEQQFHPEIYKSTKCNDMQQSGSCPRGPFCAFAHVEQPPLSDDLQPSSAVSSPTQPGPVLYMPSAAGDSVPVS
Sequence = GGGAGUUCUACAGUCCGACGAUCCACAGAGGAGAUCUGCUGUUCCUCACGAAUUUCCGGGAGGACCCCAUCAGAGCUGGUGAAAUAGUUGUUUUUAAAGUUGAAGGAAGAGACAUUCCAAUAGUUCACAGAGUAAUCAAGGUUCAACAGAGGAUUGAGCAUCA; value = 3.63 ratio
Sequence = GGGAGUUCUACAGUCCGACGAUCAAAGUGAUGACUAUGUUUGUCCAACGACAGGUAUUUUCGGAGAGCAAGGAUGAGAUUGCUUUAGUCCUCUAUGGCACAGAUGGCACUGAUAAUGCCCUUGCUGGCAAGGACCAGUAUCAGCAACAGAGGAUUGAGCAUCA; value = 0.134 ratio
Sequence = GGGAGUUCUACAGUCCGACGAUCGGUGGGGUGGUCAUUGCCGUUUGAGCUCUGCUGAUUCAUGAGUCGCCUUCAAAACUCUCGUGUAGGGUUGACAAUGUGGGGGGGUGGGGGAUCCAGCUUAUUCUUUUAUUUUCAAGUCCACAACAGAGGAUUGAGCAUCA; value = 0.912 ratio
Sequence = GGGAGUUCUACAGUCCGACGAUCUCAAGGGGGCACUGCAGAGCCAUGCCUUUCCUUGACAUACAGAAAAAGCUGGGCAUCAGCCUGGACCGAUGGUUGACGUUCCUAAGCGCAGAACAGCCCUAUAAGAACGCCGCUCGGUGCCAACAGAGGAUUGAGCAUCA; value = 0.087 ratio
Sequence = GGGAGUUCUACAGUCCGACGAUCACUCAGAGAUCCACCUCAAUUGAAGUGCUGGAGCUCUGUGUGGCCACCACACCUAACUUGAUGGAUAUAUAUUUUUUUUAAUAUGAAUCUUCCUGUUCGUCCAGGGAAGAAAGAUUUGUUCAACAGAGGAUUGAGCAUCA; value = 1.2 ratio
Sequence = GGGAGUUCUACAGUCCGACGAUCAACAGAUUUCUCAAGCACAUUCCAAGCGAGAAUGCUGGGGUGAUCAUUGUUGCCCAUGUGCCUUCUGUAAUAGAUGGAAUGCUGUUCCAUGUUACAUCUUUCCUUCACUCCAGAAUUGUUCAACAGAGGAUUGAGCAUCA; value = 0.123 ratio
Sequence = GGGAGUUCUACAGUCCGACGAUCCUGUGACCACAAGAUCCUACCUGAGUGGCAGCUGAAGUUGACUCCCUCUCCUUGCCUGAACCCCCCCCUUUUGUUCCCCCAUCCCCCGCAGAAUUCCGAGAUGUUGCCUCUGCACGGUUCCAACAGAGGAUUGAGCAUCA; value = 2.53 ratio
Sequence = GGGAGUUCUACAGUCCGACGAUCACUCAGAGAUCCACCUCCCAAAGUGCUGGGAGUAAAGGUGUGGCCACCACACCUAACUUCAUAGACAUAUAUUUUUUUUAAUAUGAAUCUUCCUGUUCUUCAUCCAGAGAAAGAUUUGUUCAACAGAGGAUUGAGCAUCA; value = 3.54 ratio
Sequence = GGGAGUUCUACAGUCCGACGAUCUUAAUCCCCUUUACUGCUCCACCACUGCUCAUGGUAAUAACAAAGUCUUAUAUCCCCGUCCUAGCUUUCACUCAGAUGGCUUAUGGAGCCGGUUUCCUAUCUUUCUUGGGAGGGAUCAGACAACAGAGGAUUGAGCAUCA; value = 0.22 ratio
Sequence = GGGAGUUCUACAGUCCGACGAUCAAAUUUCCCCUCCUGAGACCUCCUCCGAAGUUGGAGUCUCUUACAGAUGCCUCAUCCCCUGUUAGCGUUUUAGUUUGGACCACCCAGCCUUGGACAAUUCCCGCCAAUGAAGCUGUUUGCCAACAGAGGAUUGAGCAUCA; value = 2.38 ratio
Sequence = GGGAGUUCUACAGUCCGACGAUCUUUGUAUUUAUGCUAAGCACGCGUGCUGGUGGUCUGGGCAUCAAUCUUGCAACUGCUGAUGUAGUCAUUUUAUAUGAUUCUGAUUGGAAUCCGCAAGUUGAUCUUCAGGCUAUGGACCGUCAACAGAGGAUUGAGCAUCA; value = 0.18 ratio
